Assay results from different studies.
Lines come from different studies, so protocols differ.

| SMILES | test system | conditions | AUC(0-inf) |
| --- | --- | --- | --- |
| O=C(O)c1ccc(/C=C2\SC(=S)N(Cc3cccc(C(F)(F)F)c3)C2=O)cc1 | C57BL/6 mouse, blood | intravenous, 5 mg/kg | 5720 ng·h/mL |
| N#CCCC1CCN(C(=S)c2ccc(-c3cc(Cl)ccc3Cl)o2)CC1 | male BALB/c mouse, plasma | intravenous, 5 mg/kg | 1250 ng·h/mL |
| Cc1cc(NCC(=O)C(C)C)c2nc(N3CCOC[C@H]3C)cc(=O)n2c1 | C57BL/6 mouse, plasma | intraperitoneal, 10 mg/kg, single dose | 3040 ng·h/mL |
| COc1cc(C2C3=C(COC3=O)N(CCO)c3cc4c(cc32)CCC4)cc(OC)c1OC (stereo not drawn) | female C57BL/6 mouse, plasma | intraperitoneal, 50 mg/kg | 2540 ng·h/mL |
| CC[C@H](C)[C@H](NC(=O)[C@H](Cc1ccccc1)NC(=O)[C@H](CCC(=O)O)NC(=O)[C@H](CCCCN)NC(=O)[C@H](C)NC(=O)[C@H](C)NC(=O)[C@H](CCC(N)=O)NC(=O)CNC(=O)[C@H](CCC(=O)O)NC(=O)[C@H](CC(C)C)NC(=O)[C@H](Cc1ccc(O)cc1)NC(=O)[C@H](CO)NC(=O)[C@H](CO)NC(=O)[C@@H](NC(=O)[C@H](CC(=O)O)NC(=O)[C@H](CO)NC(=O)[C@@H](NC(=O)[C@H](Cc1ccccc1)NC(=O)[C@@H](NC(=O)CNC(=O)[C@H](CCC(=O)O)NC(=O)[C@H](C)NC(=O)[C@@H](N)Cc1c[nH]cn1)[C@@H](C)O)[C@@H](C)O)C(C)C)C(=O)N[C@@H](C)C(=O)N[C@@H](Cc1c[nH]c2ccccc12)C(=O)N[C@@H](CC(C)C)C(=O)N[C@H](C(=O)N[C@@H](CCCNC(=N)N)C(=O)NCC(=O)N[C@@H](CCCNC(=N)N)C(=O)NCC(=O)O)C(C)C | male CD-1 mouse, plasma | intravenous, 1 mg/kg, single dose | 130 ng·h/mL |
| CC[C@H](C)[C@@H]1NC(=O)[C@@](C)(NC(=O)[C@H](CCCNC(=N)N)NC(=O)[C@H](CC(C)C)NC(=O)[C@]2(C)CCCC=CCCC[C@](C)(NC(C)=O)C(=O)N[C@@H](CC(C)C)C(=O)N[C@@H](CCC(N)=O)C(=O)N2)CCCC=CCCC[C@@](C)(C(=O)N[C@@H](CC(C)C)C(=O)N[C@@H](Cc2ccc3ccccc3c2)C(=O)NCCC(=O)NCCC(N)=O)NC(=O)[C@H](CCCNC(=N)N)NC(=O)[C@H](CCC(N)=O)NC1=O | male BALB/c mouse, plasma | intravenous, 30 mg/kg | 998000 ng·h/mL |
| CC[C@H](C)/C=C/C=C/C=C/C(O)=C/C(=O)C(F)(F)Cl | female C57BL/6 mouse, plasma | oral, 25 mg/kg | 9610 ng·h/mL |
| C/C(N)=N/C(=N\S(=O)(=O)c1ccc(C(F)(F)F)cc1)N1C[C@H](c2ccccc2)C(c2ccc(Cl)cc2)=N1 | C57BL/6 mouse, liver | intravenous, 10 mg/kg | 106000 ng·h/mL |
| COc1ccccc1/C=C/CNCC(O)COc1ccc(Nc2ccccc2)cc1 (racemic) | mouse, plasma | oral, 10 mg/kg | 54.4 ng·h/mL |
| CC(=O)N1c2ccc(-c3ccc(CNC(=O)c4cn5cc(-c6cnc(N)nc6)nc(N6CCOCC6)c5n4)cc3)cc2CC[C@@H]1C | female C57BL/6 mouse, plasma | intraperitoneal, 45 mg/kg, single dose | 165 µM·h |
| Cc1cc(NC(=O)[C@H](O)c2cc(F)cc(F)c2)ccc1-c1cnc(N)c(C(=O)NC(C)C)c1 | female nude mouse, plasma | oral, 100 mg/kg, single dose | 119000 ng·h/mL |
| COc1cc(OCCN2CCOCC2)cnc1-c1nc2cc(OC(F)(F)F)ccc2[nH]1 | mouse, plasma | intraperitoneal, 100 mg/kg | 0.0347 µM·h |
| COc1cnc2cccc(N3CCc4c(cc(Cn5ccnc5)cc4-c4cn(C)nc4C(F)(F)F)C3=O)c2c1 | male CD-1 mouse, plasma | intraperitoneal, 10 mg/kg | 11300 ng·h/mL |
| COC(=O)C1=CNC=C(C(=O)OC)C1c1ccc(F)c(C(F)(F)F)c1 | male C57BL/6 mouse, plasma | intravenous, 2 mg/kg | 1350 ng·h/mL |
| Cn1ccc(-c2cc(Cl)c(Cl)c3[nH]c4c(c23)CN(C(=O)CO)CC4)n1 | C57BL/6 mouse, blood | intravenous, 0.5 mg/kg | 0.848 µM·h |
| Cn1c2cc([S+](C)[O-])sc2c2cnn(Cc3cccc(N)c3)c(=O)c21 (stereo not drawn) | male BALB/c mouse, plasma | intraperitoneal, 50 mg/kg, single dose | 131000 ng·h/mL |
| CC[C@H](C)/C=C/C=C/C=C/C(O)=C/C(=O)C(Cl)(Cl)Cl | female C57BL/6 mouse, plasma | oral, 25 mg/kg | 953 ng·h/mL |
| FC(F)(F)Oc1ccc2[nH]c(-c3ccc(OCCN4CCOCC4)cn3)nc2c1 | mouse, plasma | intraperitoneal, 100 mg/kg | 0.136 µM·h |
| C[C@@H](Nc1nc2c(cnn2C(C)(C)C)c(=O)n1Cc1cccc(F)c1)c1ccc(Cl)cc1 | C57BL/6 mouse, plasma | oral, 5 mg/kg | 1680 ng·h/mL |
| Nc1ccc(-c2cc(Cl)c(Cl)c3[nH]c4c(c23)CN(C(=O)CO)CC4)cn1 | C57BL/6 mouse, blood | oral, 20 mg/kg | 3.24 µM·h |
| CCOC(=O)c1nc2cc(Cl)c(Cl)cc2nc1N1CCN(C(=O)Nc2ccc(N3CCNCC3)cc2)CC1 | male mouse, plasma | oral, 10 mg/kg | 372 ng·h/mL |

Repeated from above:
| SMILES | test system | conditions | AUC(0-inf) |
| --- | --- | --- | --- |
| CC[C@H](C)[C@H](NC(=O)[C@H](Cc1ccccc1)NC(=O)[C@H](CCC(=O)O)NC(=O)[C@H](CCCCN)NC(=O)[C@H](C)NC(=O)[C@H](C)NC(=O)[C@H](CCC(N)=O)NC(=O)CNC(=O)[C@H](CCC(=O)O)NC(=O)[C@H](CC(C)C)NC(=O)[C@H](Cc1ccc(O)cc1)NC(=O)[C@H](CO)NC(=O)[C@H](CO)NC(=O)[C@@H](NC(=O)[C@H](CC(=O)O)NC(=O)[C@H](CO)NC(=O)[C@@H](NC(=O)[C@H](Cc1ccccc1)NC(=O)[C@@H](NC(=O)CNC(=O)[C@H](CCC(=O)O)NC(=O)[C@H](C)NC(=O)[C@@H](N)Cc1c[nH]cn1)[C@@H](C)O)[C@@H](C)O)C(C)C)C(=O)N[C@@H](C)C(=O)N[C@@H](Cc1c[nH]c2ccccc12)C(=O)N[C@@H](CC(C)C)C(=O)N[C@H](C(=O)N[C@@H](CCCNC(=N)N)C(=O)NCC(=O)N[C@@H](CCCNC(=N)N)C(=O)NCC(=O)O)C(C)C | male CD-1 mouse, plasma | intravenous, 1 mg/kg, single dose | 130 ng·h/mL |
